Measured values gathered from unrelated publications.
Compare with care: the assays were run in different laboratories. Several values in a cell are separate wells, animals, samples, runs or records. ± marks the error that the study gave.

Structure (SMILES)	test	test system	setting	scale	quantity	value
COC(=O)[C@@]1(C(C)C)C=C(C(=O)Nc2cccc(C(=O)Nc3ccc(Nc4nccc(-c5cccnc5)n4)c(C)c3)c2)C(=O)CC1	–	rat, plasma	1 µM, 20 min	–	compound remaining	96.8% and 99.3%
CN1CCC[C@]1(C)/C=C/S(=O)(=O)NC(=O)Nc1c2c(cc3c1CC(O)C3)CCC2 (stereo partly drawn)	–	human, plasma	oral, 100 mg twice daily of parent drug, day 14, metabolite of dosed drug	–	Tmax at second steady-state dose	3.02 h
C=C(NC(=O)c1csc(-c2nc3c(cc2O)-c2nc(cs2)C(=O)NC(C(C)O)C(=O)NC(=C(C)OC)c2nc(cs2)C(=O)NC2c4nc(cs4)C(=O)NC(COC(=O)c4c5c6c(cccc6n4O)COC(=O)C(OC4CC(C)(O)C(N(C)C)C(C)O4)C2OC5)c2nc-3cs2)n1)C(N)=O (stereo not drawn)	–	cynomolgus monkey, both sexes, plasma	intravenous infusion, 1.5 mg/kg twice daily, 0 to 6 h, first dose	–	Tmax	0.17 ± 0.17 h
C=CC(=O)Nc1cc(Nc2nccc(-c3cn(C4CC4)c4ccccc34)n2)c(OC)cc1N(C)CCNC	freeze-thaw stability	rat plasma	40 ng/mL, three freeze-thaw cycles	relative to: nominal concentration	relative error	10.7%
COc1cccc(OC)c1-c1cc(C(=O)NC2(C(=O)O)C3CC4CC(C3)CC2C4)nn1-c1ccc(C(=O)N(C)CCOCCOCCN(C)C(=O)[C@H](CCCCNC(=O)[C@H](CC(C)C)NC(=O)C2OC2C(=O)O)NC(=O)CN2CCN(CC(=O)[O-])CCN(CC(=O)[O-])CCN(CC(=O)[O-])CC2)cc1C(C)C.[177Lu+3] (mixture of isomers)	–	mouse, HT-29 xenograft, heart	72 h post injection	–	tissue uptake	0.08 %ID/g
CC(=O)N([O-])CCCCCNC(=O)CCC(=O)N([O-])CCCCCNC(=O)CCC(=O)N([O-])CCCCCN.[89Zr+4]	–	mouse, spleen	4 h	–	tracer uptake	0.24 %ID/g
O=C(CN1CCN(CC(=O)NCc2ncccc2O)CCN(CC(=O)NCc2ncccc2O)CCN(CC(=O)NCc2ncccc2O)CC1)NCc1ncccc1O.[177Lu+3]	–	Sprague-Dawley rat, liver	intravenous (tail vein), dose not given, 2 h	–	tissue uptake	0.354 ± 0.088 % injected dose/g
Cc1ccc2c(C#N)ccc(O)c2n1	capillary electrophoresis	–	–	–	pKa	7.6
CC(C)OCCOCc1ccc(OCC(O)CN(N=O)C(C)C)cc1 (stereo not drawn)	duplex sequencing, refers to: mutation frequency	NMRI mouse, liver	oral, 284.5 mg/kg/day, 4 weeks	relative to: vehicle	fold change	1.74
COc1cccc(OC)c1-c1cc(C(=O)NC2(C(=O)O)C3CC4CC(C3)CC2C4)nn1-c1ccc(C(=O)N(C)CCCN(C)C(=O)[C@H](CCCCNC(=O)[C@H](CC(C)C)NC(=O)C2OC2C(=O)O)NC(=O)CN2CCN(CC(=O)[O-])CCN(CC(=O)[O-])CCN(CC(=O)[O-])CC2)cc1C(C)C.[177Lu+3] (mixture of isomers)	–	mouse, HT-29 xenograft	4 h post injection, biodistribution	relative to: tumour over heart uptake	tumour-to-heart ratio	11.1
O=C(c1ccccc1)N1C(c2ccc(OCC3CCN(CCCF)C3)cc2)c2ccc(O)cc2CC12CC2 (stereo not drawn)	–	C57BL/6J mouse, plasma	intraperitoneal, 25 mg/kg, group mean	–	MRT(0-inf)	2.2 h
Cc1cc(C)n(CCN(CCN)CCCCCCNC(=O)[C@@H](N)Cc2c[nH]cn2)n1.[99Tc+].[C-]#[O+].[C-]#[O+].[C-]#[O+]	–	BALB/c nude mice A549 xenograft	intravenous, 24 h	relative to: tumour over muscle	tumour-to-tissue ratio	10.9
Cc1nn(-c2nc3c(F)cc(F)cc3s2)c(O)c1C(c1ccc(C(F)(F)F)cc1)c1c(C)nn(-c2nc3c(F)cc(F)cc3s2)c1O	–	ICR mouse, plasma	oral, 50 mg/kg	–	dose-normalised Cmax	1420 kg·ng/mL/mg and 1900 kg·ng/mL/mg and 2120 kg·ng/mL/mg
CC(C)(F)CC(NC(c1ccc(-c2ccc(S(C)(=O)=O)cc2)cc1)C(F)(F)F)C(=O)NCC#CBr (stereo not drawn)	–	PBS	100 µM, 23 h, pH 7.45, 37 °C, together with: cysteine 10 mM	–	cysteine adduct formation	55%
CC(=O)NCC(=O)N[C@@H](Cc1ccccc1)C(=O)N[C@@H](Cc1ccccc1)C(=O)N[C@@H](Cc1ccc(O)cc1)C(=O)NCC(=O)N[C@@H](Cc1ccc(O)cc1)C(=O)NCC(=O)N[C@@H](CO)C(=O)N[C@@H](CO)C(=O)N[C@@H](CO)C(=O)N[C@@H](CCCNC(=N)N)C(=O)N[C@@H](CCCNC(=N)N)C(=O)N[C@@H](C)C(=O)N1CCC[C@H]1C(=O)N[C@@H](CCC(N)=O)C(=O)N[C@H](C(=O)O)[C@@H](C)O	TEM	PBS	1.0 wt%, heating-cooling	–	nanosphere diameter	44.8 ± 10.9 nm
CC(C(=O)O)n1nc(Cn2cc3cc(OCC[18F])c(Cl)cc3n2)c2ccccc2c1=O (racemic)	–	Sprague-Dawley rat male, fat	5 min	–	tissue uptake	0.11 ± 0.07 %ID/g
COCC1CN(C2CCN(c3cc(OC)c(Nc4ncc(Br)c(Nc5ccc6c(c5P(C)(C)=O)OCCO6)n4)cc3C)CC2)C1	–	EGFR-mutant NSCLC patients	oral, 90 mg once daily	–	grade ≥3 treatment-related AEs	0%
O=C(Nc1cnccc1-c1ccc([18F])nc1)c1ccnc(NC(=O)C2CC2)c1	–	FVB/NJ mice, both sexes, brain	intravenous, 15 min, median, P-gp inhibitor pretreatment, together with: tariquidar 15 mg/kg iv	–	SUV	0.229
CC(=O)N[C@H](CC(=O)O)C(=O)N[C@H](Cc1c[nH]c2ccccc12)C(=O)N[C@H](Cc1ccccc1)C(=O)N[C@H](CCCCN)C(=O)N[C@H](C)C(=O)N[C@H](Cc1ccccc1)C(=O)N[C@H](Cc1ccc(O)cc1)C(=O)N[C@H](CC(=O)O)C(=O)N[C@H](CCCCN)C(=O)N[C@@H](C(=O)N[C@H](C)C(=O)N[C@H](CCC(=O)O)C(=O)N[C@H](CCCCN)C(=O)N[C@H](Cc1ccccc1)C(=O)N[C@H](CCCCN)C(=O)N[C@H](CCC(=O)O)C(=O)N[C@H](C)C(=O)N[C@H](Cc1ccccc1)C(N)=O)C(C)C	–	human, plasma	oral, dose not given, 1 h post-dose, day 13	–	plasma concentration	90 ng/mL
NS(=O)(=O)c1c(F)c(F)c(SCCc2ccc(C(=O)O)cc2)c(F)c1F	–	–	sulfonamide group	–	pKa	8.05
N=C(N)NCCC[C@@H]1NC(=O)[C@H](CO)NC(=O)[C@@H](NC(=O)[C@H](CO)NC(=O)[C@H](CO)NC(=O)[C@H](Cc2c[nH]c3ccccc23)NC(=O)CNC(=O)[C@H](CO)NC(=O)[C@@H](N)Cc2c[nH]c3ccccc23)CSSC[C@@H](C(=O)NCC(=O)O)NC(=O)[C@H](CO)NC1=O	–	patients, plasma	intravenous, 10 mg/kg, thrice weekly, mean	–	volume of distribution (Vz)	438 L

Structure (SMILES)	test	test system	setting	scale	quantity	value
CC(C)C[C@H](NC(=O)[C@@H](CCCCNC(=O)[C@@H](Cc1ccccc1)NC(=O)CCCCCCCNC(=O)CN1CCN(CC(=O)O)CCN(CC(=O)O)CCN(CC(=O)O)CC1)NC(=O)[C@H](Cc1ccc(O)cc1)NC(=O)[C@H](CO)NC(=O)[C@H](Cc1c[nH]c2ccccc12)NC(=O)[C@H](Cc1c[nH]cn1)NC(=O)[C@@H]1CCC(=O)N1)C(=O)N[C@@H](CCCNC(=N)N)C(=O)N1CCC[C@H]1C(=O)NCC(N)=O [indium-111 labelled]	–	male athymic nude mice, DU-145 prostate cancer xenograft, tumour	intravenous, 0.037 MBq, 0.5 h	relative to: tumour over muscle	tumour-to-tissue ratio	2.13
Cc1cc(-c2ccc(C(=O)[C@@H]3CCCC[C@H]3C(=O)Nc3cnn4c3C(=O)NCC4)cc2)[nH]n1	–	human, faeces	oral, 200 mg, 288-312 h	relative to: dose	radioactivity recovery per interval	0.06%
C=Cc1c(C)c2cc3nc(c(CC(=O)O)c4[nH]c(cc5nc(cc1[nH]2)C(C)=C5CC)c(C)c4C(=O)O)[C@@H](CCC(=O)OCCOCCOCCOC)[C@@H]3C	LC-MS	methanol-water 9:1	1 h, pH 2.0	–	compound loss	17%
CS(=O)(=O)c1cc(Cl)cc(-c2cc(Cl)c(Cl)cc2Cl)c1Cl	–	cow whole milk	500 nM	relative to: milk fat over skim milk	milk fat partition ratio	226
CC[C@H](C)[C@@H]1NC(=O)[C@H](Cc2ccc(O)cc2)NC(=O)CCCSC[C@@H](C(=O)N(CC(=O)N[C@@H](CC(C)C)C(=O)NCC(N)=O)Cc2ccc(F)cc2)NC(=O)[C@H](CC(N)=O)NC(=O)[C@H](CCC(N)=O)NC1=O	–	human	intranasal, 200 µg single dose	–	serious adverse events	0%
C=Cc1c(C)c2cc3nc(c(CC(=O)OCCOCCOCCOC)c4[nH]c(cc5nc(cc1[nH]2)C(C)=C5CC)c(C)c4C(=O)OCCOCCOCCOC)[C@@H](CCC(=O)OCCOCCOCCOC)[C@@H]3C	LC-MS	methanol-water 9:1	1 h, pH 8.0	–	compound loss	100%
CC(C)[C@H](NC(=O)[C@H](Cc1c[nH]c2ccccc12)NC(=O)[C@H](CCCNC(=N)N)NC(=O)[C@H](CCCNC(=N)N)NC(=O)[C@@H](NC(=O)[C@@H](NC(=O)[C@H](CCCNC(=N)N)NC(=O)[C@@H](NC(=O)[C@@H](NC(=O)[C@H](CCCNC(=N)N)NC(=O)[C@H](CCCNC(=N)N)NC(=O)[C@@H](NC(=O)[C@H](Cc1c[nH]c2ccccc12)NC(=O)[C@H](CCCNC(=N)N)NC(=O)[C@H](CCCNC(=N)N)NC(=O)[C@@H](NC(=O)[C@H](CCCNC(=N)N)NC(=O)[C@H](CCCNC(=N)N)NC(=O)[C@@H](NC(=O)[C@H](Cc1c[nH]c2ccccc12)NC(=O)[C@H](CCCNC(=N)N)NC(=O)[C@@H](N)CCCNC(=N)N)C(C)C)C(C)C)C(C)C)C(C)C)C(C)C)C(C)C)C(C)C)C(=O)N[C@@H](CCCNC(=N)N)C(=O)N[C@@H](CCCNC(=N)N)C(=O)O	–	CD1 mouse, urine	intravenous, 15 mg/kg, 0 to 16 h, [14C]-labelled compound	–	urine volume	229 µL/day/g body weight
[18F]CCn1cc(COc2ccc(-c3nncnn3)cc2)nn1	PET imaging	BALB/c nude mouse, LS174T xenograft, tumour, heart as blood	intravenous, 1 h, together with: CC49-TCO 72 h before	relative to: tumour over heart	tumour to blood ratio	0.76
CCCCN1C(=O)c2cccc3c(NCCN4CCOCC4)ccc(c23)C1=O	–	methanol	–	–	fluorescence quantum yield	0.08
CCCC[C@H](NC(=O)CNC(=O)CNC(=O)[C@H](CCCCNC(=O)C(C)c1ccc(CC(C)C)cc1)NC(=O)CN1CCN(CC(=O)O)CCN(CC(=O)O)CCN(CC(=O)O)CC1)C(=O)N[C@H]1CC(=O)NCCCC[C@@H](C(N)=O)NC(=O)[C@H](Cc2c[nH]c3ccccc23)NC(=O)[C@H](CCCNC(=N)N)NC(=O)[C@@H](Cc2ccccc2)NC(=O)[C@H](Cc2c[nH]cn2)NC1=O (stereo partly drawn) [lutetium-177 labelled]	–	C57 mice, tumour	2 h	relative to: muscle	tumour-to-tissue ratio	49.4
[Cl-].[Cl-].[Ru+2].c1ccc(-c2ccnc3c2ccc2c(-c4ccccc4)ccnc23)cc1.c1cnc2c(c1)ccc1cccnc12.c1cnc2c(c1)ccc1cccnc12	C18 HPLC retention time	water	100 µM	relative to: standards of known log P	relative log P	2.31
CN1CCN(C(=S)N/N=C/c2ccccc2O)CC1	–	plasma	intravenous, 30 mg/kg	–	Vss	37.6 ± 16.7 L/kg
CC(CCC(=O)NCC(=O)O)C1CCC2C3CCC4CC(OC5OC(C(=O)O)C(O)C(O)C5O)CCC4(C)C3CC(O)C12C (stereo not drawn)	–	human, plasma	control	–	Cmin	71.8 ± 44.9 nM
CN([O-])C(=O)CN1CCN(CC(=O)N(C)[O-])CCN(Cc2ccccn2)CC1.[89Zr+4]	–	mouse, blood	intravenous, 1 h	–	tracer uptake	3.88 %ID/g
C=CC(=O)Nc1cc(Nc2nccc(-c3cn(C)c4ccccc34)n2)c(OC)cc1N(C)CCNC	storage stability	human dried blood spot	30 d, on ice, LQC level	–	recovery	40%
O=C([O-])CN1CCN(CC(=O)[O-])CCN(C(CO)C(O)CO)CCN(CC(=O)[O-])CC1.[Dy+3] (stereo not drawn)	ICP-MS	cynomolgus monkey	58 days	relative to: dose	cumulative urinary excretion	98.9%
C=CC(=O)Nc1cc(Nc2nccc(-c3c[nH]c4ccccc34)n2)c(OC)cc1N(C)CCN(C)C	–	human plasma	24 h, storage stability, medium QC sample	–	recovery	58.8%
[123I]c1ccc2nc(-c3ccc(-n4ccnn4)nc3)cn2c1	–	male Wistar rat, stomach	intravenous, 4 MBq, 14 h	–	tracer uptake	0.059 %ID/g
OCC1OC(n2cnc3c(NCc4ccc(Br)s4)ncnc32)C(O)C1O (stereo not drawn)	–	ICR mice, male, blood	oral, 10 mg/kg	–	t1/2	3 ± 1 h
COc1cc(-c2cc(=O)c3ccc(OCCCn4c(Cl)nc5ccccc54)cc3o2)cc(OC)c1OC	–	Sprague-Dawley rat male, plasma	intravenous, 10 mg/kg	–	CLz/F	750 ± 91.8 mL/min/kg
O=C(Nc1cnccc1-c1ccc([18F])cc1)c1ccnc(NC(=O)C2CC2)c1	–	mice, transgenic, GSK-3β, early-stage, lung	intravenous, dose not given, 120 min	–	SUV	0.2

For quick reference, copied from above:
Structure (SMILES)	test	test system	setting	scale	quantity	value
C=Cc1c(C)c2cc3nc(c(CC(=O)OCCOCCOCCOC)c4[nH]c(cc5nc(cc1[nH]2)C(C)=C5CC)c(C)c4C(=O)OCCOCCOCCOC)[C@@H](CCC(=O)OCCOCCOCCOC)[C@@H]3C	LC-MS	methanol-water 9:1	1 h, pH 8.0	–	compound loss	100%
Cc1nn(-c2nc3c(F)cc(F)cc3s2)c(O)c1C(c1ccc(C(F)(F)F)cc1)c1c(C)nn(-c2nc3c(F)cc(F)cc3s2)c1O	–	ICR mouse, plasma	oral, 50 mg/kg	–	dose-normalised Cmax	1420 kg·ng/mL/mg and 1900 kg·ng/mL/mg and 2120 kg·ng/mL/mg
CC(C)(F)CC(NC(c1ccc(-c2ccc(S(C)(=O)=O)cc2)cc1)C(F)(F)F)C(=O)NCC#CBr (stereo not drawn)	–	PBS	100 µM, 23 h, pH 7.45, 37 °C, together with: cysteine 10 mM	–	cysteine adduct formation	55%
